Measurements of several laboratories.
“And” joins repeats or separate records; there may be more than shown. ± gives the spread as reported. Values after ≈ are worked out from the molar mass of the structure shown.

Compound	target or system	assay	system	conditions	scale	endpoint	result
C[N+]1=C2C(c3ccccc3)=[N+]([O-])c3ccccc3N2CCC1	Fusobacterium nucleatum	microbial growth	–	–	–	MIC50	4 µg/mL
CCOC(=O)C1(Cc2ccccc2)Oc2ccccc2N(Cc2ccccc2)C1=O (centres unmarked)	Arabidopsis thaliana	root length, petri dish germination	Col-0, 1/2 MS medium	50 µg/mL, 7 days, 22 °C, dark	–	inhibition	56.9%
CN(C(=O)c1ccn2ncc(-c3ccc(C(N)=O)cc3)c2c1)c1ccc(C#N)cn1	Cryptosporidium parvum	–	UGA1 Nluc, IFN-gamma knockout C57BL/6 mice, faeces	oral, 10 mg/kg daily, 240 h post infection, treatment days 11-17	higher means more parasites	faecal Nluc luminescence	39100 a.u. and 97800 a.u. and 151000 a.u. and 45400 a.u.
CC(C)[C@H]1NC(=O)[C@H](Cc2ccccc2)NC(=O)[C@@H](C(C)C)NC(=O)[C@@H](C)NC(=O)[C@H](CO)NC(=O)[C@@H](Cc2c(-c3ccc(-c4cccc5ccccc45)cc3)[nH]c3ccccc23)NC(=O)[C@@H](CO)NC1=O	Candida albicans	broth dilution	–	–	–	MIC90	> 50 µM
CC[C@H](C)CCCCC(=O)N[C@@H](CCN)C(=O)N[C@H](C(=O)N[C@@H](CCN)C(=O)N[C@H]1CCNC(=O)[C@H]([C@@H](C)O)NC(=O)[C@H](CCN)NC(=O)[C@H](CCN)NC(=O)[C@H](CC(C)C)NC(=O)[C@@H](CC(C)C)NC(=O)[C@H](CCN)NC1=O)[C@@H](C)O	Escherichia coli	daily serial passaging	ATCC 8739	highest sub-MIC, 28 days	baseline: initial MIC	MIC fold change	2.21
CCCCCCCC(=O)NCCCC[C@H](NC(=O)CCCCCCC)C(=O)N[C@@H](CCCCNC(=O)CCCCCCC)C(=O)NCC(=O)NCC(=O)NCC(=O)N[C@@H](CS)C(=O)N[C@@H](CCCNC(=N)N)C(=O)N[C@@H](CCCCN)C(=O)N1CCC[C@H]1C(N)=O	Candida albicans	broth microdilution	CGMCC 2.209, RPMI-1640	48 h, 30 °C	–	MIC	> 128 µM
C[C@H](NC(=O)[C@@H](O)c1cc(F)cc(F)c1)C(=O)N[C@@H]1C(=O)N(C)c2ccccc2-c2ccccc21	dengue virus 2	viral replication	Huh-7.5.1 overexpressing SPP	–	baseline: SPP over control	EC50 fold increase	> 10 fold
CCOC(=O)C1(Cc2ccc(C#N)cc2)Oc2cc(F)ccc2N(Cc2ccc(C#N)cc2)C1=O (centres unmarked)	Arabidopsis thaliana	root length, petri dish germination	Col-0, 1/2 MS medium	50 µg/mL, 7 days, 22 °C, dark	–	inhibition	38.2%
O=S(=O)(c1ccc(-c2ccc3ncnc(Nc4ccccc4)c3c2)cc1)N1CCOCC1	Plasmodium falciparum	parasite growth, SYBR Green	D6	blood stage	–	EC50	> 4000 nM
C#CCN1C(=O)C(CC#C)(C(=O)OCC)Oc2ccccc21 (centres unmarked)	Arabidopsis thaliana	–	Col-0, seed germination, dark	200 µg/mL, 7 days, 22 °C	–	stem length inhibition	100%
CC(C)C[C@H](NC(=O)[C@H](CC(C)C)NC(=O)[C@H](CCCCN)NC(=O)[C@H](Cc1ccccc1)NC(=O)[C@@H](NC(=O)[C@H](CCCNC(=N)N)NC(=O)[C@@H](N)CCCCN)C(C)C)C(=O)N[C@@H](CCCCN)C(=O)N[C@@H](CCCNC(=N)N)C(=O)N[C@@H](Cc1ccc(O)cc1)C(=O)N[C@@H](Cc1c[nH]c2ccccc12)C(=O)N[C@@H](CCCNC(=N)N)C(=O)N[C@@H](CCC(N)=O)C(=O)N[C@@H](CC(C)C)C(=O)N[C@@H](CCCCN)C(=O)N[C@@H](CCCCN)C(=O)N1CCC[C@H]1C(=O)N[C@H](C(=O)N[C@@H](CCCNC(=N)N)C(=O)NCCOCCOCC(=O)O)C(C)C	Pseudomonas aeruginosa and Staphylococcus aureus	confocal microscopy	mixed biofilm	10 µM, 6 h, biofilm, pre-formed, 24 h	–	lipid fluorescence reduction	87%
CCOC(=O)C1(Cc2ccc(C)cc2)Oc2cc(F)ccc2N(Cc2ccc(C)cc2)C1=O (centres unmarked)	Arabidopsis thaliana	root length, petri dish germination	Col-0, 1/2 MS medium	50 µg/mL, 7 days, 22 °C, dark	–	inhibition	34.1%
CC(=O)c1c(O)c(C)c(O)c2c1OC1=CC(=O)C(=C(C)NCCCC(=O)OC3OC4OC5(C)CCC6C(C)CCC(C3C)C46OO5)C(=O)C12C (centres unmarked)	Plasmodium berghei	–	ANKA GFP, NMRI mouse	oral, 4 x 30 mg/kg	–	mean survival time	16 days
CN(C)c1nc(NCc2c(F)cccc2C(F)(F)F)c(/N=N/c2ccc(Cl)cc2)c(N(C)C)n1	Plutella xylostella	leaf dipping	–	200 mg/L, 96 h	–	mortality	70 ± 6.2%
C[N+]1=C2C(c3ccc([N+](=O)[O-])cc3)=[N+]([O-])c3ccccc3N2CCC1	Fusobacterium nucleatum	–	–	–	–	MIC90	1 µg/mL
CN(CCO)CCO.O=C(O)C(Cl)Cl	Xanthium sibiricum	–	–	15 mg/mL, 21 days, pre-emergence, greenhouse	–	herbicidal inhibition	0%
CC(C)(C)OCc1ccc(-c2ccc3ncnc(Nc4ccc(OCc5cccc(F)c5)c(Cl)c4)c3c2)cc1	Plasmodium falciparum	parasite growth, SYBR Green fluorescence	W2, drug-resistant	–	–	EC50	2200 nM
COc1ccc2nc3cc(Cl)ccc3c(Nc3cc(C(C)C)c(O)cc3C)c2c1	HIV-1 subtype C	viral replication	–	96 h	–	IC50	12500 nM
Fc1cccc(COc2ccc(Nc3ncnc4ccc(-c5cccc(N6CCSCC6)c5)cc34)cc2Cl)c1	Plasmodium falciparum	parasite growth, SYBR Green fluorescence	C235 (TM91C235), drug-resistant	–	–	EC50	780 nM
CCCCCC[C@H]1C(=O)O[C@H](C)[C@H](NC(=O)c2cccc(NC=O)c2O)C(=O)O[C@@H](C)[C@@H]1OC(=O)CC(C)C	Bovine alphaherpesvirus 1	viral replication	Vero C1008	24 h	–	IC50	14 nM
CN1CCN(S(=O)(=O)c2ccc(-c3ccc4ncnc(Nc5ccc(F)cc5)c4c3)cc2)CC1	Plasmodium falciparum	parasite growth, SYBR Green fluorescence	W2, drug-resistant	–	–	EC50	780 nM

Compound	target or system	assay	system	conditions	scale	endpoint	result
CC(C)[C@H]1NC(=O)[C@H](Cc2ccc(O)cc2)NC(=O)[C@@H](C(C)C)NC(=O)[C@@H](C)NC(=O)[C@H](CO)NC(=O)[C@@H](Cc2c(-c3ccc(-c4ccc5ccccc5c4)cc3)[nH]c3ccccc23)NC(=O)[C@@H](CO)NC1=O	Candida albicans	broth dilution	–	–	–	MIC90	> 50 µM
OB(O)c1ccc(C(F)(F)F)s1	Staphylococcus aureus	OD600	USA300 fphE::Tn transposon mutant	100 µM	baseline: wild type	growth	29.2% and 46.1% and 58.6% and 52% and 43.5% and 46.6%
[2H]C([2H])([2H])n1cnc(Cn2c(=O)[nH]/c(=N\c3cc4cn(C)nc4cc3Cl)n(Cc3cc(F)c(F)cc3F)c2=O)n1	Betacoronavirus 1	viral replication, qPCR	OC43, human	–	–	IC50	270 nM
Clc1cc(Nc2ncnc3ccc(-c4cccc(N5CCOCC5)c4)cc23)ccc1OCc1ccccc1	Plasmodium falciparum	parasite growth, SYBR Green fluorescence	C235 (TM91C235), drug-resistant	–	–	EC50	720 nM
C=CCN1C(=O)C(CC=C)(C(=O)OCC)Oc2cc(F)ccc21 (centres unmarked)	Arabidopsis thaliana	–	Col-0, seed germination, dark	200 µg/mL, 7 days, 22 °C	–	root length inhibition	100%
O=C1NC2(CC2)COc2ncc(F)cc2[C@H]2COCCN2c2ccn3ncc1c3n2	–	–	Sprague-Dawley rat, male, heart	oral, 2.5 mg/kg/day, 4 weeks, end of treatment	–	organ-to-body weight ratio	0.361 ± 0.028%
FC(F)(F)c1cccc(CNc2nc(NC3CCN(Cc4ccccc4)CC3)c3nc[nH]c3n2)c1	Cryptococcus neoformans	RNA-seq, measured: CNAG_03277	–	48 µg/mL, 3 h	baseline: untreated	mRNA fold change	1.5
CC1=C[C@@H](C)[C@H]2[C@@H]3C(=O)C(Cl)(Cl)C(=O)[C@H](C)C(=O)O[C@@H](C)/C=C/C=C\[C@@H](C)[C@@H]3C=C[C@@H]2C1	Staphylococcus aureus	–	Newman compound-resistant mutant Mt1, broth-selected	concentration not given	baseline: parent strain	MIC fold change	16
CCOC(=O)C1(CC)Oc2cc(F)ccc2N(CC)C1=O (centres unmarked)	Arabidopsis thaliana	root length, petri dish germination	Col-0, 1/2 MS medium	200 µg/mL, 7 days, 22 °C, dark	–	inhibition	100%
CCCCCCCCCC(=O)NCCCC[C@H](NC(=O)CCCCCCCCC)C(=O)N[C@@H](CCCCNC(=O)CCCCCCCCC)C(=O)NCC(=O)NCC(=O)NCC(=O)N[C@@H](CS)C(=O)N[C@@H](CCCNC(=N)N)C(=O)N[C@@H](CCCCN)C(=O)N1CCC[C@H]1C(=O)N[C@@H](CS)C(=O)N[C@@H](CCCNC(=N)N)C(=O)N[C@@H](CCCCN)C(=O)N1CCC[C@H]1C(N)=O	Candida albicans	broth microdilution	17546, RPMI-1640	48 h, 30 °C	–	MIC	32 µM (≈ 60 µg/mL)
C[C@H]1[C@@H](OCc2cn(-c3cc4ccc(O)cc4oc3=O)nn2)O[C@@H]2O[C@@]3(C)CC[C@H]4[C@H](C)CC[C@@H]1[C@@]24OO3	Plasmodium berghei	–	NK65/GFP, infected mice	oral gavage, 65 µmol/kg once daily, 96 h dosing period	–	cured mice	0%
COc1ccc(Cn2c3cc(=O)n(Cc4cccc(Cl)n4)c(C)c3c(=O)n2-c2ccccn2)cc1	human respiratory syncytial virus	–	recombinant reporter virus	concentration not given, scale 0 to 100, together with: adenosine 100 µM	–	normalized viral replication	0
CN1CCN(S(=O)(=O)c2ccc(-c3ccc4ncnc(Nc5ccccc5)c4c3)cc2)CC1	Plasmodium falciparum	parasite growth, SYBR Green	D6	blood stage	–	EC50	700 nM
CCOC(=O)C1(Cc2cc(F)c(F)c(F)c2)Oc2cc(F)ccc2N(Cc2cc(F)c(F)c(F)c2)C1=O (centres unmarked)	Arabidopsis thaliana	stem length, petri dish germination	Col-0, 1/2 MS medium	200 µg/mL, 7 days, 22 °C, dark	–	inhibition	63.6%
Fc1cccc(COc2ccc(Nc3ncnc4ccc(-c5ccc(N6CCCCC6)cc5)cc34)cc2Cl)c1	Plasmodium falciparum	parasite growth, SYBR Green fluorescence	C235 (TM91C235), drug-resistant	–	–	EC50	1000 nM
[O-][N+]1=C(c2ccc(Cl)cc2)C2=NCCCCN2c2ccccc21	Fusobacterium nucleatum	–	–	–	–	MIC90	0.5 µg/mL
CCOC(=O)C1(Cc2ccccc2)Oc2cc(C)ccc2N(Cc2ccccc2)C1=O (centres unmarked)	Arabidopsis thaliana	root length, petri dish germination	Col-0, 1/2 MS medium	50 µg/mL, 7 days, 22 °C, dark	–	inhibition	51.2%
CC(=O)c1c(O)c(C)c(O)c2c1OC1=CC(=O)C(=C(C)NCCCCOC3OC4OC5(C)CCC6C(C)CCC(C3C)C46OO5)C(=O)C12C (mixture of isomers)	Plasmodium berghei	–	ANKA GFP, NMRI mouse	oral, 4 x 30 mg/kg, day 4 post infection	–	parasitaemia inhibition	99.9%
CC(C)(C)OC(=O)N1CCN(S(=O)(=O)c2ccc(-c3ccc4ncnc(Nc5ccc(OCc6cccc(F)c6)c(Cl)c5)c4c3)cc2)CC1	Plasmodium falciparum	parasite growth, SYBR Green fluorescence	C235 (TM91C235), drug-resistant	–	–	EC50	430 nM
Cc1cc(C(=O)Nc2nc3cccc(C)c3n2[C@H]2CCCCN(C(=O)/C=C/CN(C)C)C2)ccn1	Trypanosoma brucei	propidium iodide flow cytometry	bloodstream form	concentration not given, 3 h	–	cells in S phase	17.5%
